Measurements pooled from the literature.
Every numbered part comes from another study and shows a few of its results, in no order.

Set 1
Target: Interferon regulatory factor 5, full length, phosphomimetic (IRF5, Homo sapiens, UniProt Q13568-2, residues 1-514, K96S/S451D/S453D/S456D/S462D)
Technique: protein-binding microarray
Molecule type: double-stranded DNA, one strand shown
Matrix: in vitro
Concentration: 250 nM
Notes: 60-bp whole probe
With: salmon DNA 0.4 mg/ml
Reference: random background probes
Direction: higher = stronger binding
Endpoint: log fluorescence
All sequences stand within: GCCTAGCAC … GTCTTGATTCGCTTGACGCTGCTG
GACGATTTCAGTTCCCAGACGTGCTAG: 0.997 z-score
TTAGGTTTCCTTATCCTTTGGTGCTAG: 0.948 z-score
GACTATATCGGGTTTCGAGACGTGCTA: 3.46 z-score
TCAGATATGCCAAATCTGACTGTGCTA: -0.0455 z-score
GACGTTATCGGTATCGGGACGTGCTAG: 6.23 z-score
TTAGGACTGGACTCTCGGTTAGTGCTA: 0.0352 z-score
TTAGGTTCCCTTTTCCTTTGGTGCTAG: 0.305 z-score
TTAGGTATCCGTTTCGGTTAGTGCTAG: 8.53 z-score
GAAGGTTCCCTTTTCCTGACGTGCTAG: 0.227 z-score
TTAGGTCTCGGTTTTGGTTAGTGCTAG: 1.7 z-score
TAAGATTTCGGGTATCGATTAGTGCTA: 6.7 z-score
TTAGATCTCAGAATGGATTAGTGCTAG: -0.19 z-score
TTAGGTTCCGGCTTCGGTTAGTGCTAG: 0.992 z-score
CTCTCTTTCCAACTCTGTTTGTGCTAG: 0.783 z-score
TCAGGACTGCTTATCCTTTAGTGCTAG: -0.164 z-score
TTATGACTGGGTTTCGGTTAGTGCTAG: 8.87 z-score
TTAGGTCTCCTTTTCCTTCAGTGCTAG: 0.492 z-score

Set 2
Target: Sal-like protein 4, full length isoform B (SALL4, Homo sapiens, UniProt Q9UJQ4-2, residues 1-616)
Technique: universal PBM
Molecule type: double-stranded DNA, one strand shown
Matrix: in vitro
Concentration: not given
Notes: 8-mer, flanks averaged, mean of replicates
Direction: higher = stronger binding
Endpoint: E-score
Residues (chain): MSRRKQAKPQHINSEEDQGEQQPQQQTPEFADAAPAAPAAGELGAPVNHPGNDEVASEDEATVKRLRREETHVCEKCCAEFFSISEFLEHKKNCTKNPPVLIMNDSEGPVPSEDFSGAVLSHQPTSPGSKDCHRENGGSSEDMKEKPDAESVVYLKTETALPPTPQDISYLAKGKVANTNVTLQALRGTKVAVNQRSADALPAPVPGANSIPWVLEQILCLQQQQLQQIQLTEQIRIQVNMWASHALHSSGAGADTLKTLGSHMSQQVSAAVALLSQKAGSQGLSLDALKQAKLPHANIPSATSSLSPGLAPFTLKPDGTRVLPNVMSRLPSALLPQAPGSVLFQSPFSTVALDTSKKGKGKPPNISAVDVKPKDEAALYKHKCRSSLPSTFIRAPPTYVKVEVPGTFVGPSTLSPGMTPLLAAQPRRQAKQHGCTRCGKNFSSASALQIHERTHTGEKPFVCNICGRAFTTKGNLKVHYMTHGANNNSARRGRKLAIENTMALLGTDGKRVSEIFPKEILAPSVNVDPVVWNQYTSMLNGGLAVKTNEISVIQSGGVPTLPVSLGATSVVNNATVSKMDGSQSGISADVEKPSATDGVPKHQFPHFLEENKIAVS
GACGTGGA: -0.109
AGCTTCTA: -0.0102
ACGATGGG: -0.102
TAAACTAA: 0.325
CAATATTA: 0.445
AGAGAAAG: 0.0924
GAGTCCGC: -0.319
ACCCGGGT: -0.252
ACTATTCA: 0.219
GTAATGTA: 0.253
ATAGTTTA: 0.287
GCGGCGAA: -0.26
CAGTCATG: -0.153
AACTCAAA: 0.165
AAAGATCC: -0.0271
GCTTTGAC: -0.0556
ACACGGTC: -0.145

Set 3
Target: Phosphate system positive regulatory protein PHO4, full length, GST-tagged (PHO4, Saccharomyces cerevisiae, UniProt P07270, residues 1-312)
Technique: competition protein-binding microarray
Molecule type: double-stranded DNA, one strand shown
Matrix: in vitro
Concentration: 2 µM
Notes: whole 60-bp probe, lowest competitor level
With: Cbf1 competitor, 0.05 µM
Direction: higher = stronger binding
Endpoint: fluorescence intensity
All sequences stand within: … GTCTTGATTCGCTTGACGCTGCTG
Target sequence (chain): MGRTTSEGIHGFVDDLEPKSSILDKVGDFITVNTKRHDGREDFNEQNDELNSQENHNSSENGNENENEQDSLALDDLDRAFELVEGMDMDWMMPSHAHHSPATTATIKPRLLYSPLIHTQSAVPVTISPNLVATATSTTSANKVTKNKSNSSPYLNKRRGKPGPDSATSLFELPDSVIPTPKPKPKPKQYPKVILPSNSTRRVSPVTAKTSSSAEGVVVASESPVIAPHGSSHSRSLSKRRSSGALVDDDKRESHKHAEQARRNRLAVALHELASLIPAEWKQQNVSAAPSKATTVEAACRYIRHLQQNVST
ACCTTGCGGCGATATCACAATTTTCCTTGTACACTC: 3370 a.u.
CTTGGAGCAAGCCTACACGTGTGAATATTCTACGGC: 14900 a.u.
TACGACATTGGCAATCACGTGTTGGGCTGCTCCTCC: 13700 a.u.
AACTTAGCACCATCGCGCGTGCATCGCTGTATGTGT: 12700 a.u.
ATACATCCCCAAGTTCACCTGACTGGAACTAGTGGA: 3280 a.u.
AAGGCCATAAAAAGAACCGTGACGGGGCCAAACAGA: 4680 a.u.
CGTCCTAGTGATTTTCACGTGGATTCCATGAGGAAG: 12100 a.u.
AAAGCGGTAATTTGTCACGCTACTTCACATATCTAT: 6050 a.u.
CTGGGAAAACATCACCACGTCTCAAAGAACCTGCAA: 5730 a.u.
ATACGAACCATCCATCACGTGCAAAGACAAACCCTA: 14400 a.u.
AAATTACTAAGTTGATAAGTGGGTGACGCCGTATGA: 3940 a.u.
ATAACGGTACTTATTTGCATGACGCTCATCAACCCT: 3800 a.u.
TGATGAGGACACCAACACGTGCAAACATGGTAGTGC: 15600 a.u.
CTTTCCCGATCTTGAACAGTGGGTGTAGCACATTTG: 4810 a.u.
CTAACGAAGGTTTTTCACGTGGAATACAAGCCAAGT: 13000 a.u.
CGGGGTTAAGTTTTTCACGTGACCTGCTTGCAGCAG: 9240 a.u.

Set 4
Organism: Saccharomyces cerevisiae
Observed: binding
Technique: yeast competitive growth sequencing
Molecule type: peptide
Strain: cyclin B3-Cln2 fusion strain
Notes: peptide tiling library
Direction: direction not given
Endpoint: enrichment score
QNPCGSKACRRLFGPV: -1.42
GPVKLEFDVSDGAT: -0.459
RTEALEQGGLPKKLIF: 1.48
SPPRGRRLFPPGPAGF: 0.108
RQVRRDLFAF: -0.851
QYQVVDDIVSKLVFDF: 0.849
YLYLLLTQSLWCRV: -1.99
EHCRVLFLDHVMYTIH: -1.79
KRCATPVIIDEILPSK: 1.56
SNFFDVIKQLFSDEKN: 0.991
GTPKRCLDLSNLSSGE: -0.373
PHKTFRKLRLFDTPHT: -1.53
KVRRNLFNQELLSP: -0.787
EPRNLLSLFEDTLDPT: 0.672
NEGVSNAVRRSLYIRD: -0.534
VKRLNFRSEEME: -0.116

Set 5
Target: RNA binding protein fox-1 homolog 2, RRM domain, GST-SBP tag (RBFOX2, Homo sapiens, UniProt O43251-10, residues 100-194)
Technique: RNA Bind-n-Seq
Molecule type: RNA
Matrix: in vitro
Concentration: 365 nM
Notes: natural RNA segment, single round, ends assumed
Reference: no-protein control
Direction: higher = stronger binding
Endpoint: RBNS enrichment (R)
All sequences stand within: GGGAGUUCUACAGUCCGACGAUC … UGGAAUUCUCGGGUGCCAA
Residues (chain): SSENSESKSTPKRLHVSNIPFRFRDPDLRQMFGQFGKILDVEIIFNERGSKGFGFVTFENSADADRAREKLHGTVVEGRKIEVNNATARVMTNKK
AACCCGAAUCUGAGAAGGAAUUGCGUCAUGUAAGGGAAGCUGGAAUUAAGGGAGCUGAGCCAGUCAUGGUUGUGGCGUGUGAGUCAGGAGACCUAGGUUUCAGCCCCUCU: 3.16
ACUUUUGAGCGCUGUGUUCCCCCUUCUGAGUAGUCCUUUGACGACGUGUUGUGUUUUCUGAUGUUGACUUGAGUUCCAUUUAGUAGCAUCUCUUCCUUCCAUGUCUUGAU: 0.312
CAAGGACUCAGAACAACAUGGCUUUUUGAUCGGUACCAACCGACCUACAUCAAUUAGUUAUUGGACUUCACAAAGAUUUGCCGCUGUGGAUCAAACAGGACCACCUCCCU: 0.236
UGUAUAUAAACUCCAAAGAGAAACACCCCAAUAGCCUAAGCAAUAAUGCAAAGAUCUUGCCCCUGCCAGUGGCAAGUGCCGACAAACCAAGUGCCUGUAGGCUCCUGGGA: 0.597
GUACCACAGGAUACAUAUAGGUAGAAUAUAAUCUCGAUAGACACUGACUAUUGAUAUACGCCCCCAAACUUAAGGUGUUCAUGUUAGAUUUUAAUUAGCUGUGAGAUUUA: 0.649
UCAGAGUUGAACUACCACUGUGGCUGCUUAUUGCUUCCUCCUAAGUUGCUACUGUUCAUAGAACUGGGACUGGGAAUGUUUUCAGGUUGAUGGACUUUUUCAAGCUCAAA: 0.587
UACUGAUUAAAAUAUGUCUGUCUAAAGGGAUCUACUACUAUUUGCUUUUAAAAAAGUGUUCCCUAUUUAUUUAGGAAAAAGUGAAGCAAGCAACUGAAUUUAUAUGUAAA: 1.18
GGAGGCUCAGAUGAGAUGCUAUAUGUGAAAACAUUCUGUAAGCUUCGUACAAAUGUGAAGUAUUAAUAUUAUCGCAGUAUUAUUGUUGUUAUUAUUAUUGUUAUUAUUAA: 0.677
AGCCUUGGACUACACACAUUUCAAACAAAACCAAAUGCUGUCGUCGACAAGCCAGCACAGGCGAAGUGAUGGUUCCCACAGCACCCCCAAUAAAAACUGGGAUUUUGAAU: 0.33
AUCUCAGGCAAUCGAGACAGAGAGAGCCAGCAAGGGCUGGUACCUGAGGUCAUAUUUCAGACACCCACCUGACCCUGCCACUCACAGCCGUCGUUUGUUUUCCAUGGAUG: 0.352
UCUGCAGAGAGGAAGAUAUGUUUUUGCUGCUUUAUAUAAAAAUGGUUUUUUUAAGUUAUUUUAAAAAUCUAGCUUCCCUUUUUGAUUAAGAUUGCCAUCUUGCUUUUAGG: 0.976
UUCAUAUUUUGUGAUAUAUAAGUAGUGAACACACAUGUUAUUUACUUCAAAAGACAGGAUUGACAAAUUCAGUCAAUACUAUUUUAGAGAUUCUGUUAGAUGAUAUGUCU: 0.359
